Measurements pooled from the literature.
Parts stem from different laboratories: compare values within a part only. Positions count from the first letter of the parent shown.

Set 1 — technique: RNAcompete; molecule type: RNA; medium: in vitro; tested at: 20 nM; setting: 7-mer, probes averaged, single round; reference: mean of 7-mers; reading: higher = stronger binding
Target: PABPC1L2, full length, GST fusion (mouse, UniProt A0ABA7IW68)
Construct (chain): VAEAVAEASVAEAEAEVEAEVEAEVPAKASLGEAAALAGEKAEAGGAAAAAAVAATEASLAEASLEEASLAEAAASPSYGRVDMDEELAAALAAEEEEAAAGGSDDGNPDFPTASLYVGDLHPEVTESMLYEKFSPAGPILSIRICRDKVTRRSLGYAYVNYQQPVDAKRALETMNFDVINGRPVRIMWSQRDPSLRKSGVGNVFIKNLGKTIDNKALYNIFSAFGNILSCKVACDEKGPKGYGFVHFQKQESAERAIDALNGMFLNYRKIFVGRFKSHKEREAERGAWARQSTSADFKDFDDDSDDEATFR
| Strand | 7-mer Z-score |
| --- | --- |
| GUAGGGC | 0.283 |
| AUGUCCG | -0.173 |
| UUAAAAC | 1.12 |
| CCCGGCU | -0.389 |
| CAAGUGA | -0.0863 |
| GUGCAGU | -0.164 |
| CUUCUUA | -0.367 |
| UGUCAUC | -0.267 |

Set 2 — read-out: peptide-MHC binding; molecule type: peptide; tested at: concentration not given
Target: HLA class I histocompatibility antigen, A alpha chain, allele A*80:01 (Homo sapiens, UniProt P04439)
| Molecule | binding |
| --- | --- |
| ETMKPAAMV | inactive |
| GTEEIRSLY | inactive |
| GTGDSRLTY | inactive |
| YQIEGAWRA | inactive |
| YFTFDLTAL | inactive |
| VSRDFDDVY | inactive |
| SQVRVPTVF | inactive |
| LYKTIVNIW | inactive |
| YYRYPTGESY | inactive |
| HFIYHKREK | inactive |
| ILHRLAPWI | inactive |
| LTKEEFTRY | inactive |
| AFDLSFFLK | inactive |
| MTRVTNNVY | inactive |
| PTDYAKPQY | inactive |
| HVTQHWPQL | inactive |
| WLAGFEPSE | inactive |
| LLDDGWAGE | inactive |
| ISEMLSKEY | inactive |

Set 3 — technique: universal PBM; molecule type: double-stranded DNA, one strand shown; medium: in vitro; tested at: 600 nM; reading: higher = stronger binding
Target: Sal-like protein 4, full length isoform A (SALL4, Homo sapiens, UniProt Q9UJQ4, residues 1-1053)
Sequence of UniProt Q9UJQ4 (whole entry, looked up): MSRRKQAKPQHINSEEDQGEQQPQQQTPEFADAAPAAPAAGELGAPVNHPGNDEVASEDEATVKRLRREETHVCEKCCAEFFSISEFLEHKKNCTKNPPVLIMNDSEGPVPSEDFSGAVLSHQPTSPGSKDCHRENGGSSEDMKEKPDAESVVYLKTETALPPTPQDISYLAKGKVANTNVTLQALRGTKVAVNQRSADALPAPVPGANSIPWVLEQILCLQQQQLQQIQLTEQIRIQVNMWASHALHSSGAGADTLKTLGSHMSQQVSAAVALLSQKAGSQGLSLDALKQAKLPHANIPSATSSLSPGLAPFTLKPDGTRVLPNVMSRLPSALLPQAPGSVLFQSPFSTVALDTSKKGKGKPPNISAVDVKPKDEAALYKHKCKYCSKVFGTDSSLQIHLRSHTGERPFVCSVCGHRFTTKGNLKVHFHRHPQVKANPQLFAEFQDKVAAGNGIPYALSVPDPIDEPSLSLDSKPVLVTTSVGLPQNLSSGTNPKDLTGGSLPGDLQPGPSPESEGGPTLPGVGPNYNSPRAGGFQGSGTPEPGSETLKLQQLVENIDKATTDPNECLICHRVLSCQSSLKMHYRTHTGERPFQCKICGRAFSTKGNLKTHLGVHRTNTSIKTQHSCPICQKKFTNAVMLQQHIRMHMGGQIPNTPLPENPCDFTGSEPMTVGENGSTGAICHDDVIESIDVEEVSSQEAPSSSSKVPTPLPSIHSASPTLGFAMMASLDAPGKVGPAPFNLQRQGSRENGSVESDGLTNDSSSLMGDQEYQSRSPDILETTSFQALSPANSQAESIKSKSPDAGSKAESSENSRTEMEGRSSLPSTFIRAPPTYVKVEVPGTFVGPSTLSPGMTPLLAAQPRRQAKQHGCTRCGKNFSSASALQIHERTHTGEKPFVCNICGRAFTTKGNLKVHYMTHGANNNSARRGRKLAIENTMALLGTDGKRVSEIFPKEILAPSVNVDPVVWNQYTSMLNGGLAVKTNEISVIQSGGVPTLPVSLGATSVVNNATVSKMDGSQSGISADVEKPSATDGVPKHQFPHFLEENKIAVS
Setting: 8-mer, flanks averaged, mean of replicates
| Strand | E-score |
| --- | --- |
| CGCATGAC | -0.19 |
| ACGTCCGC | -0.198 |
| GGTTCATA | 0.205 |
| CAGTCCGA | -0.153 |
| ATGACCAA | 0.186 |
| CGAACGAA | -0.0522 |
| GAAATACC | 0.0493 |
| ACGCGGAA | -0.0443 |

Set 4 — target: CCNB3, cyclin fold, Cln2 fusion (human); technique: yeast growth competition, sequencing; medium: yeast; setting: strong parent motif; reference: not given; reading: higher = stronger binding; parent: viral docking peptide; YKVKRRLVFGADD
| Change | normalised enrichment score |
| --- | --- |
| YKVDRRLVFGADD [K4D] | 0.059 |
| YKVKRRLVFGARD [D12R] | 1.05 |
| YKVKRRLVFGGDD [A11G] | 2.17 |
| YKVKQRLVFGADD [R5Q] | 0.393 |
| YKVKRRLVFGAAD [D12A] | 1.46 |
| YKDKRRLVFGADD [V3D] | 0.111 |
| YKVKRRLVFGFDD [A11F] | 1.73 |
| YKVKRRLVFDADD [G10D] | 3.21 |
| YKVKRRLVFGAYD [D12Y] | 1.32 |
| YKVKRRLVFKADD [G10K] | 1.3 |
| YKVKRRLVFLADD [G10L] | 1.09 |
| YKVKRRLYFGADD [V8Y] | 1.61 |
| YKVKRRLVFEADD [G10E] | 2.6 |

Excerpt of the above (set 3):
| Strand | E-score |
| --- | --- |
| ATGACCAA | 0.186 |
| CGCATGAC | -0.19 |
| CGAACGAA | -0.0522 |
| ACGTCCGC | -0.198 |
| ACGCGGAA | -0.0443 |
| GGTTCATA | 0.205 |
| GAAATACC | 0.0493 |
